Measurements from different studies.
Each line is one published result; not all experiments were run side by side. ± marks the error that the study gave.

c1ccc2c(c1)cc1ccc3cccc4ccc2c1c34 — result for “menadione reductase activity”: 14.3 enzyme units (inducer; female rat, liver; oral, 1 mg, 24 h, sesame oil vehicle).
Under “tumours in complete cytostasis”, Cc1cc(NC(=O)[C@H](O)c2cc(F)cc(F)c2)ccc1-c1cnc(N)c(C(=O)NC(C)C)c1 is recorded as 43% (MMTV-HER2 female mice; dose not given, over 2 weeks).
The transition enthalpy of CC(=O)N[C@@H](CC(C)C)C(=O)NCC(=O)N[C@@H](Cc1ccc(O)cc1)C(=O)NCC(=O)N[C@@H](CCCCN)C(N)=O is reported as 0.3 kcal/mol (DSC; SOPC/cholesterol 6/4 bilayers; 10 mol%, pH 7.40).
CC[C@@H]1NC(C)(C)CO[C@@]1(O)c1cccc(Cl)c1 has an ED50 of 4 µg/kg (nicotine antinociception blockade, antagonist, tail-flick test; mouse; 15 min pretreatment, together with: nicotine 2.5 mg/kg subcutaneous).
With CCOC(=O)[C@H](C)C[C@@H](Cc1ccc(-c2ccccc2)cc1)NC(=O)CCC(=O)O the ejection fraction was 87% (rat high-fat streptozotocin diabetes; drinking water, 18 mg/kg/day, 6 weeks, together with: ANP 2 pmol/kg/min s.c.).
CNC(C)C1CCC(N)C(OC2C(N)CC(N)C(OC3OCC(C)(O)C(NC)C3O)C2O)O1 (stereo not shown) gave an IC50 of greater than 500 µM ([14C]-phenylalanine incorporation, inhibitor, (UUU)12-directed cell-free translation; M. smegmatis 70S ribosomes, Leishmania/Trypanosoma hybrid decoding site; 60 min, 37 °C).
Cc1cccc(Cn2cc(COCc3cnc(C)c(O)c3CO)nn2)c1 has an absorbance change of 0% (Zn2+ chelation; 100 µM, 30 min, 37 °C, together with: Zn2+ 100 µM).
Cc1ccc2cc3c(ccc4ccccc43)c3c2c1CC3: “menadione reductase activity” 376% (inducer; rat, liver; intravenous, 2.5 mg at 0 h, 48 h, together with: 7,12-dimethylbenz[a]anthracene 5 mg at 24 h; relative to: untreated control).
For CNC(=O)[C@@H](NC(=O)c1cc(OCC2(C)COC2)c(C2CC2)cn1)C(C)(C)C, the IBA1-positive area was 9.5 ± 0.3% (immunostaining; SOD1 G93A mouse, spinal cord; ip, 30 mg/kg once daily, P25 to P35).
CC(C)C(=O)OC[C@H]1O[C@@](C#N)(c2ccc3c(N)ncnn23)[C@H](O)[C@@H]1O — result for “viral RNA level”: “decreased” (qRT-PCR; BALB/c mice, MHV-A59 infected, liver; intragastric, 10 and 50 mg/kg twice daily, 3 days post infection; relative to: vehicle).
The EPSC amplitude of Cl.Cl.Cl.NCCCNCCCCNCCCNC(=O)Cc1cccc2ccccc12 is reported as 88 ± 2.67% (whole-cell voltage clamp; nucleus accumbens core D2-MSNs, mouse; 100 µM, together with: D1-MSN 50 Hz stimulation; relative to: baseline).
Under “seizure threshold current CC50”, CCCCCc1cc(O)c(C/C=C(\C)CCC=C(C)C)c(O)c1C(=O)O is recorded as “increased” (maximal electroshock threshold; Swiss mice male; intraperitoneal, 30 mg/kg, 45 min pretreatment, 50% of mice seizing; relative to: vehicle).
The transition enthalpy of CC(=O)N[C@@H](CC(C)C)C(=O)N1CCC[C@H]1C(=O)N[C@@H](Cc1ccc(O)cc1)C(=O)N1CCC[C@H]1C(=O)N[C@@H](CCCCN)C(N)=O is reported as 0.4 kcal/mol (DSC; SOPC/cholesterol 7/3 bilayers; 5 mol%, pH 7.40).
Cc1ccc(NC(=S)NS(=O)(=O)C2=CNC3SC(=O)CN3C2=O)cc1 (stereo not shown) gave a glucose AUC of 496 ± 40.9 mg·min/dL (oral glucose tolerance test; HFD/STZ type 2 diabetic rat; oral, 10 mg/kg, together with: glucose 1 g/kg).
With `rat urocortin I` the responding neurons was roughly 85% (item: CREB phospho-Ser133; hippocampal pyramidal neurons, Sprague-Dawley rat pups; 40 nM, 15 min).
The transition enthalpy of CC[C@H](C)[C@H](NC(=O)CNC(=O)[C@H](Cc1c[nH]c2ccccc12)NC(=O)CNC(C)=O)C(=O)N[C@@H](CCCCN)C(N)=O is reported as 0.5 kcal/mol (DSC; SOPC/cholesterol 6/4 bilayers; 5 mol%, pH 7.40).
The ED50 of CCC[C@@H]1NC(C)(C)CO[C@@]1(O)c1cccc(Cl)c1 is reported as 4 µg/kg (nicotine antinociception blockade, antagonist, tail-flick test; mouse; 15 min pretreatment, together with: nicotine 2.5 mg/kg subcutaneous).
CSCC[C@@H]1NC(=O)[C@H](CC(C)C)NC(=O)[C@H](CCCCN)NC(=O)[C@H](CCC(N)=O)NC(=O)[C@H](CCCNC(=N)N)NC(=O)[C@H](CCCCN)NC(=O)[C@H](CCCNC(=N)N)NC(=O)[C@H](CCC(N)=O)NC(=O)[C@H](C(C)C)NC(=O)[C@@H](NC(=O)[C@@H]2CCCN2C(=O)[C@H](C)NC(=O)[C@H](CC(C)C)NC(=O)[C@H](CC(C)C)NC(=O)[C@H](C)NC(=O)[C@H](CC(C)C)NC(=O)[C@H](CC(C)C)NC(=O)[C@@H](NC(=O)[C@H](C)NC(=O)[C@@H]2CCCN2C(=O)[C@H](CC(C)C)NC(=O)[C@H](CC(C)C)NC(=O)[C@H](C)NC(=O)[C@@H](NC(=O)[C@H](C)NC(=O)[C@H](C)N)C(C)C)C(C)C)CSSC[C@@H](C(=O)O)NC(=O)[C@@H]2CCCN2C1=O — result for “atherosclerotic lesion area”: “decreased” (Ldlr-/- mice, female, aortic root; subcutaneous pump, dose not given, 4 weeks; relative to: saline).
For CSCC[C@H](NC(=O)[C@H](CC(C)C)NC(=O)[C@H](C)N)C(=O)NCC(=O)N[C@@H](C)C(=O)N[C@H](C(=O)N[C@H](C(=O)N[C@@H](CO)C(=O)N[C@@H](CC(C)C)C(=O)O)[C@@H](C)O)C(C)C, “IFN-γ+ CD8+ T cells” read no more than 4% (PBMC, human, HSV-1 seropositive, HLA-A*0201+; 10 µg/mL, 72 h).
The leakage of CC(C)C[C@H](NC(=O)[C@H](CC(C)C)NC(=O)[C@H](CCCCN)NC(=O)[C@H](C)NC(=O)[C@H](CC(C)C)NC(=O)[C@H](CCCCN)NC(=O)[C@H](CCCCN)NC(=O)[C@H](CC(C)C)NC(=O)[C@H](C)NC(=O)[C@H](CCCCN)NC(=O)[C@H](CCCCN)NC(=O)[C@H](Cc1ccc(O)cc1)NC(=O)[C@@H](N)CCCCN)C(N)=O is reported as 60% (carboxyfluorescein release; EYPG vesicles; 10 µg/mL, 250 s, pH 7.4, 25 °C; relative to: Triton X-100).
For `atrial natriuretic peptide`, the fractional shortening was roughly 44% (echocardiography; male Wistar rat, high-fat/STZ type 2 diabetes; subcutaneous osmotic pump, 2 pmol/kg/min, 6 weeks).
CCN[C@@H]1C[C@H](N)[C@@H](O[C@H]2OC(CN)=CC[C@H]2N)[C@H](O)[C@H]1O[C@H]1OC[C@](C)(O)[C@H](NC)[C@H]1O gave an IC50 of 64 µM (luciferase synthesis, inhibitor, coupled transcription-translation; M. smegmatis 70S ribosomes, human hybrid; 60 min, 37 °C).
CC1=C(C(=O)Nc2ccc(F)cc2)C(c2ccccc2C#N)NC(=S)N1 (stereo not shown): “mean arterial pressure” 22.4 ± 0.96 mm Hg (carotid artery cannulation; male Wistar rats, anaesthetised; 0.3 mL, 3 h).
For COc1ccc(OC)c(CN(C(=O)C[18F])c2ccccc2Oc2ccccc2)c1, “in vivo affinity ratio” read 1.37 (human, brain; relative to: cpd over 11C-PBR28).
Under “mean arterial pressure”, CC1=C(C(=O)Cl)C(c2ccccc2Cl)NC(=S)N1 (stereo not shown) is recorded as 25.4 ± 1.34 mm Hg (carotid artery cannulation; male Wistar rats, anaesthetised; 0.3 mL, 3 h).
Cc1ncc(COCc2cn(Cc3cc(F)cc(F)c3)nn2)c(CO)c1O has an absorbance change of 0% (Zn2+ chelation; 100 µM, 30 min, 37 °C, together with: Zn2+ 100 µM).
CC1=C(C(=O)Nc2ccccc2)C(c2ccccc2Br)NC(=S)N1 (stereo not shown): “mean arterial pressure” 21.3 ± 1.34 mm Hg (carotid artery cannulation; male Wistar rats, anaesthetised; 0.3 mL, 3 h).
For O=C(NCc1ccc(-c2ccccc2)cc1)c1cccc(=O)n1O, “troponin I release” read 58.2 ± 5.2 ng/mL (item: troponin I in coronary effluent; rat, isolated perfused stunned heart; dose not given, 20-25 min ischaemia, 5 min reperfusion).
